{"data": "Measured values of several laboratories", "note": "Every numbered part comes from another study and shows a few of its results, in no order.", "chain of UniProt Q9UQM7 (whole entry, looked up)": "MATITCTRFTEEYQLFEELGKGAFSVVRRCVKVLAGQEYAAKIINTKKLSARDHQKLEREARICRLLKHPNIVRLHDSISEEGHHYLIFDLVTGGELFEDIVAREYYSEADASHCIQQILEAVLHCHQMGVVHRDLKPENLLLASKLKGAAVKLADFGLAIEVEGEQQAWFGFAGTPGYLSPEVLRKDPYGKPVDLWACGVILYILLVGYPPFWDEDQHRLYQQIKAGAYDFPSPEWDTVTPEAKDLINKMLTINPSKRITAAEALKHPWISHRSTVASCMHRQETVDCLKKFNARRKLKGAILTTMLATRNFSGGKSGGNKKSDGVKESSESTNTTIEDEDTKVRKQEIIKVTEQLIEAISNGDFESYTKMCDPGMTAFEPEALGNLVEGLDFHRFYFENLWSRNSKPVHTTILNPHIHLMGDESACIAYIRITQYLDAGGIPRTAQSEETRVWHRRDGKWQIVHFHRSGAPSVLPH", "chain of UniProt P16591 (whole entry, looked up)": "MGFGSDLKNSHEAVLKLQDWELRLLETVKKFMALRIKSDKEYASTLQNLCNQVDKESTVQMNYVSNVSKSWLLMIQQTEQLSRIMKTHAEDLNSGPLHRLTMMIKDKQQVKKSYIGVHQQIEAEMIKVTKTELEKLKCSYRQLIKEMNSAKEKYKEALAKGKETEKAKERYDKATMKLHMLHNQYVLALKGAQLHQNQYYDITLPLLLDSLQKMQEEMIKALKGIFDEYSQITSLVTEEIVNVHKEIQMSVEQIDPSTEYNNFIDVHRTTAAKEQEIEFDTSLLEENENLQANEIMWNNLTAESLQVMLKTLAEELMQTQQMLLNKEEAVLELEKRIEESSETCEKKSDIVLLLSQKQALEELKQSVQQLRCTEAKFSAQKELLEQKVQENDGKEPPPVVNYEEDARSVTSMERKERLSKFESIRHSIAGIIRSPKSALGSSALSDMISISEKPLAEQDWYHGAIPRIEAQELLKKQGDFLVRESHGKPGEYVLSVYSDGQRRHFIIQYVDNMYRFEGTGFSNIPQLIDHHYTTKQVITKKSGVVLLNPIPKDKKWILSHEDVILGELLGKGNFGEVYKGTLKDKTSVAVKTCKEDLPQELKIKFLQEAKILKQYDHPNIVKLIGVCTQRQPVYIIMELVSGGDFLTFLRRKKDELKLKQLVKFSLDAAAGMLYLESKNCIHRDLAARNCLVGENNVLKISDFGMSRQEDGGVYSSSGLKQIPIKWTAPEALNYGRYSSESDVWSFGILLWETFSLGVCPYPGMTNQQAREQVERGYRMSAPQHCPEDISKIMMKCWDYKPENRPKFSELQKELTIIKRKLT", "chain of UniProt P35590 (whole entry, looked up)": "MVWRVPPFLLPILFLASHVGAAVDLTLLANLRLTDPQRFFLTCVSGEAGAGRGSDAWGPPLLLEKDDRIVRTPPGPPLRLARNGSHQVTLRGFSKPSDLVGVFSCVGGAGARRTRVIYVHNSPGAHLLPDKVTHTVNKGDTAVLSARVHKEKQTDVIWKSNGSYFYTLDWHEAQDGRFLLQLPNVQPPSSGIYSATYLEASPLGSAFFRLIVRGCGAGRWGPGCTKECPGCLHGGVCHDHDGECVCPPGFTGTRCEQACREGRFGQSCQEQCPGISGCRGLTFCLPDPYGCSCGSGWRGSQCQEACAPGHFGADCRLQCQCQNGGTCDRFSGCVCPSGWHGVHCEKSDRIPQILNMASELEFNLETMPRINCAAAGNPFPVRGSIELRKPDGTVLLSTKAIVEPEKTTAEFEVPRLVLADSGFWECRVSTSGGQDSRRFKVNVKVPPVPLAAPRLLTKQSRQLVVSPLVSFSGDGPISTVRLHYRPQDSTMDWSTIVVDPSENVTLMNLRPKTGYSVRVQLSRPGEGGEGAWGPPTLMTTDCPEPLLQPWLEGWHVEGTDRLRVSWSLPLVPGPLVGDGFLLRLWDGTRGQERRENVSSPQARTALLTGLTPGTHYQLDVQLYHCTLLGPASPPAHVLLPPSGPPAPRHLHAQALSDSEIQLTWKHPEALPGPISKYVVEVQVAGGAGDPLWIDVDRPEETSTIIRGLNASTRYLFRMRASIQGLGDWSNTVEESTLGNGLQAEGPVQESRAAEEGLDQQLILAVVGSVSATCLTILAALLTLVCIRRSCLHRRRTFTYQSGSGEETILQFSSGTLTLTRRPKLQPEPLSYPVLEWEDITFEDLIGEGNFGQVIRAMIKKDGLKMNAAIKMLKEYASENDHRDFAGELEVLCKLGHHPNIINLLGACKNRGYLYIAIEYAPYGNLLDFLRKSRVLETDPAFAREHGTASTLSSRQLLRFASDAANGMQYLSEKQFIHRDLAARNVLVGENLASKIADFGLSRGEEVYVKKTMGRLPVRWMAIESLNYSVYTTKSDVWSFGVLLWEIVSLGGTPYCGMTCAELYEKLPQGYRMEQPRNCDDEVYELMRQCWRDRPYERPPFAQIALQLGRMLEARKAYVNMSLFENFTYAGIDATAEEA", "chain of UniProt O95382 (whole entry, looked up)": "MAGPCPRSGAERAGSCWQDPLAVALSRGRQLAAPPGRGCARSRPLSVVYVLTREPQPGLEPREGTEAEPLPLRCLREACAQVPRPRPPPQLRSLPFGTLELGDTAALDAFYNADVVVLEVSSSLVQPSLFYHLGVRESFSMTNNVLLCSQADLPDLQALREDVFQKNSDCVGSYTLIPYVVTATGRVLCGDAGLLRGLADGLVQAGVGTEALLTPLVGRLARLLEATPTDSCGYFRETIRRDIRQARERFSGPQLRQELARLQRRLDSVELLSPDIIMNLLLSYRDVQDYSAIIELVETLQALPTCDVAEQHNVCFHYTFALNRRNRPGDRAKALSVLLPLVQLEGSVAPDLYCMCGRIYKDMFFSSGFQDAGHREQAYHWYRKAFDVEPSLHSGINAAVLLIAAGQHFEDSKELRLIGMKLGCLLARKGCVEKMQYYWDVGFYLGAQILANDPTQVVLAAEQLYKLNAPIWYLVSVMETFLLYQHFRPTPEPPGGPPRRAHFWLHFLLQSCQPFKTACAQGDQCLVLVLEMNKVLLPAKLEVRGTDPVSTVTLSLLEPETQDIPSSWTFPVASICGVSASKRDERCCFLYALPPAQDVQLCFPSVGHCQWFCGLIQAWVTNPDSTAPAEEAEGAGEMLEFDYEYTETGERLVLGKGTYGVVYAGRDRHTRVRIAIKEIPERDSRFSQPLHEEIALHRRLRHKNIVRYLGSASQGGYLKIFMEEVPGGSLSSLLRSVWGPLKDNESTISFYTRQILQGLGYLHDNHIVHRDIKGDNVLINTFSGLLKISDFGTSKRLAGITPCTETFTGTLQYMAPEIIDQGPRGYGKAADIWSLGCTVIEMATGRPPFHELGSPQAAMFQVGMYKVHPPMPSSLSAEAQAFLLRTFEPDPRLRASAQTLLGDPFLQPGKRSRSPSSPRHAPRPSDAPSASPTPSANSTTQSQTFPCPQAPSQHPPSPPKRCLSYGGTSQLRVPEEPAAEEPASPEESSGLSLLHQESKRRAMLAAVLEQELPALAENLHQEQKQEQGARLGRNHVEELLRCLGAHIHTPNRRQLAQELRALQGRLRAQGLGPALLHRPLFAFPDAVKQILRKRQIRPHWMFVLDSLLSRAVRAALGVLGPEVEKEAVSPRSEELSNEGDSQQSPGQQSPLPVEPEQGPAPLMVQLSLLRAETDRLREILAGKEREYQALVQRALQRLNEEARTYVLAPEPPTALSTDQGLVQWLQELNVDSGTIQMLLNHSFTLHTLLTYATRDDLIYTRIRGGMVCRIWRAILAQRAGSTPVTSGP", "chain of UniProt Q15349 (whole entry, looked up)": "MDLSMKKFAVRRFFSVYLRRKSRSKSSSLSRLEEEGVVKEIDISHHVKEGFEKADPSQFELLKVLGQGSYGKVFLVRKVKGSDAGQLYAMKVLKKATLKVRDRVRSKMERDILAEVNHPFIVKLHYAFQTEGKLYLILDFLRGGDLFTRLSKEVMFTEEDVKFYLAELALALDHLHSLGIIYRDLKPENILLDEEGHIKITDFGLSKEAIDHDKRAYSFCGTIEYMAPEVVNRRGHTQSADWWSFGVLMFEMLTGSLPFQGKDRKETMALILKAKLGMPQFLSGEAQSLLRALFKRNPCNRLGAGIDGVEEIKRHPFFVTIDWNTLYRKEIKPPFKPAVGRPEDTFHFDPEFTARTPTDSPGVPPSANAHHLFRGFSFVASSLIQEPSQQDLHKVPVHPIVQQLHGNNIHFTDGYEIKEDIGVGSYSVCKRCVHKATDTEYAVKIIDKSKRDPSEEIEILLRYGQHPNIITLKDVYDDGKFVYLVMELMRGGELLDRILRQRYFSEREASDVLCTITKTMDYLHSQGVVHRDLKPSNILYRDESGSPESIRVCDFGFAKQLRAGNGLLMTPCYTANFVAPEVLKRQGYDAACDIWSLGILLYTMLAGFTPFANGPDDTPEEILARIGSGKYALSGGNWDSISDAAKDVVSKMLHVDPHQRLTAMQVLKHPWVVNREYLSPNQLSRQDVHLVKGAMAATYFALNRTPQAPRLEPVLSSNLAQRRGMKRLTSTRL", "chain of UniProt P53671 (whole entry, looked up)": "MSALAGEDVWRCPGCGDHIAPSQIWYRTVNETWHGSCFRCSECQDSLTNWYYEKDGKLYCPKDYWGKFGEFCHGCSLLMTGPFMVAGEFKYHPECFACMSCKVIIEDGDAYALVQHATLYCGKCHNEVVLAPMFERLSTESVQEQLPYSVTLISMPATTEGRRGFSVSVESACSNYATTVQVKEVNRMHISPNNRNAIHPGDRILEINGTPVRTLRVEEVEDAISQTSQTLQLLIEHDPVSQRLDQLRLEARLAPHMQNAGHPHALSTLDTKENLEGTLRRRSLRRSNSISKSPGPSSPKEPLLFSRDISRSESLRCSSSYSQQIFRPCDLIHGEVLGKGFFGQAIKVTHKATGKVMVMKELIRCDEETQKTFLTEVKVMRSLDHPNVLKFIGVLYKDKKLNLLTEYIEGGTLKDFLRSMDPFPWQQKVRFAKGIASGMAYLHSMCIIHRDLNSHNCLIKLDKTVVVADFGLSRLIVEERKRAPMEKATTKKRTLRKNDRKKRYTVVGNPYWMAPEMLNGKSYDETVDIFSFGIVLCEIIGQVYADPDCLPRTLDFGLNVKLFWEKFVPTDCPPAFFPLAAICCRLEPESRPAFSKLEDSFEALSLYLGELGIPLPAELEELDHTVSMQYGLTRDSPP"}
{"data": "Block 1", "cell line": "mouse MPNST tumor cells", "method": "high-content immunofluorescence imaging", "item": "nuclear SOX9", "concentration": "10 µM", "time": "12 h", "notes": "mean of 2 replicates", "relative to": "DMSO control", "direction": "higher = more nuclear SOX9"}
{"SMILES": "CCOC(=O)C1CSC(Cc2ccc(OCc3ccc([N+](=O)[O-])cc3)cc2)N1 (stereo not shown)", "nuclear SOX9 intensity": "108 % of DMSO"}
{"SMILES": "O=C(O)c1ccc(O)c2ncccc12", "nuclear SOX9 intensity": "103 % of DMSO"}
{"SMILES": "CCCCN(CC)c1nc(C)nc2c1c(C)cn2-c1c(C)cc(C)cc1C", "nuclear SOX9 intensity": "106 % of DMSO"}
{"SMILES": "COc1ccc(-n2[nH]c3c4c(ncc3c2=O)CCCCC4)cc1", "nuclear SOX9 intensity": "93.4 % of DMSO"}
{"SMILES": "CN[C@@H]1[C@@H](O)[C@@H](O[C@@H]2[C@@H](O)[C@H](O[C@H]3OC(CN)=CC[C@H]3N)[C@@H](N)C[C@H]2N)OC[C@]1(C)O", "nuclear SOX9 intensity": "104 % of DMSO"}
{"SMILES": "Cc1onc(-c2ccccc2Cl)c1C(=O)N[C@@H]1C(=O)N2[C@@H]1SC(C)(C)[C@@H]2C(=O)O", "nuclear SOX9 intensity": "91.2 % of DMSO"}
{"SMILES": "CC(C)(C)C(=O)OCC(=O)[C@H]1CC[C@H]2[C@@H]3CCC4=CC(=O)CC[C@]4(C)[C@H]3CC[C@]12C", "nuclear SOX9 intensity": "98.2 % of DMSO"}
{"SMILES": "Clc1ccc(CO/N=C(\\Cn2ccnc2)c2ccc(Cl)cc2Cl)c(Cl)c1", "nuclear SOX9 intensity": "91.6 % of DMSO"}
{"data": "Block 2", "Structure (SMILES)": "C[C@H](c1cccc(C#N)c1)n1cc(Cl)cc(C(N)=O)c1=N", "concentration": "1 µM"}
{"target": "Casein kinase I isoform alpha (CSNK1A1, Homo sapiens, UniProt P48729)", "assay": "cell-free assay, competition with immobilised ligand", "remaining binding": "86%"}
{"target": "Mast/stem cell growth factor receptor Kit (KIT, Homo sapiens, UniProt P10721)", "assay": "cell-free assay, competition with immobilised ligand", "remaining binding": "87%"}
{"target": "Tyrosine-protein kinase Fer (FER, Homo sapiens, UniProt P16591)", "assay": "cell-free assay, competition with immobilised ligand", "remaining binding": "100%"}
{"target": "Mitogen-activated protein kinase kinase kinase 6 (MAP3K6, Homo sapiens, UniProt O95382)", "assay": "cell-free assay, competition with immobilised ligand", "remaining binding": "91%"}
{"target": "G protein-coupled receptor kinase 3 (GRK3, Homo sapiens, UniProt P35626)", "assay": "cell-free assay, competition with immobilised ligand", "remaining binding": "76%"}
{"target": "Cyclin-dependent kinase 13 (CDK13, Homo sapiens, UniProt Q14004)", "assay": "cell-free assay, competition with immobilised ligand", "remaining binding": "100%"}
{"target": "Ribosomal protein S6 kinase alpha-2, C-terminal kinase domain (RPS6KA2, Homo sapiens, UniProt Q15349)", "assay": "cell-free assay, competition with immobilised ligand", "remaining binding": "62%"}
{"target": "Membrane-associated tyrosine- and threonine-specific cdc2-inhibitory kinase (PKMYT1, Homo sapiens, UniProt Q99640)", "assay": "cell-free assay, competition with immobilised ligand", "remaining binding": "100%"}
{"target": "Serine/threonine-protein kinase MRCK gamma (CDC42BPG, Homo sapiens, UniProt Q6DT37)", "assay": "competition binding", "remaining binding": "77%"}
{"target": "LIM domain kinase 1 (LIMK1, Homo sapiens, UniProt P53667)", "assay": "cell-free assay, competition with immobilised ligand", "remaining binding": "88%"}
{"target": "Beta-adrenergic receptor kinase 1 (GRK2, Homo sapiens, UniProt P25098)", "assay": "cell-free assay, competition with immobilised ligand", "remaining binding": "81%"}
{"target": "LIM domain kinase 2 (LIMK2, Homo sapiens, UniProt P53671)", "assay": "cell-free assay, competition with immobilised ligand", "remaining binding": "100%"}
{"target": "Mitotic checkpoint serine/threonine-protein kinase BUB1 (BUB1, Homo sapiens, UniProt O43683)", "assay": "cell-free assay, competition with immobilised ligand", "remaining binding": "75%"}
{"target": "Tyrosine-protein kinase receptor Tie-1 (TIE1, Homo sapiens, UniProt P35590)", "assay": "cell-free assay, competition with immobilised ligand", "remaining binding": "100%"}
{"target": "MAP kinase-activated protein kinase 2 (MAPKAPK2, Homo sapiens, UniProt P49137)", "assay": "cell-free assay, competition with immobilised ligand", "remaining binding": "100%"}
{"target": "Calcium/calmodulin-dependent protein kinase type II subunit alpha (CAMK2A, Homo sapiens, UniProt Q9UQM7)", "assay": "cell-free assay, competition with immobilised ligand", "remaining binding": "100%"}
{"target": "Transient receptor potential cation channel subfamily M member 6 (TRPM6, Homo sapiens, UniProt Q9BX84)", "assay": "cell-free assay, competition with immobilised ligand", "remaining binding": "83%"}
{"data": "Block 3", "target": "Calcium/calmodulin-dependent protein kinase type II subunit alpha (CAMK2A, Homo sapiens, UniProt Q9UQM7)", "effect on": "enzyme activity", "action": "inhibitor", "concentration": "10 µM"}
{"Compound": "COc1c(-c2ccccc2)oc2c(ccc3occc32)c1=O", "inhibition [%]": -3}
{"Compound": "COc1nc(N)nc2c1ncn2[C@@H]1O[C@H](CO)[C@@H](O)[C@@H]1O", "inhibition [%]": -6}
{"Compound": "Nc1nc(O)c2[nH]nnc2n1", "inhibition [%]": 5}
{"Compound": "CCCCN(CCCC)CCC(O)c1cc2c(Cl)cc(Cl)cc2c2cc(C(F)(F)F)ccc12 (stereo not shown)", "inhibition [%]": -1}
{"Compound": "COc1cc2c(=O)c(-c3ccc(O)cc3)coc2cc1O", "inhibition [%]": -19}
{"Compound": "COc1cc(O[C@@H]2O[C@H](CO)[C@@H](O)[C@H](O)[C@H]2O)c2c(c1)C(=O)c1cc(C)cc(O)c1C2=O", "inhibition [%]": 0}
{"Compound": "COc1ccc2c(C)cc(=O)oc2c1O", "inhibition [%]": 1}
{"Compound": "CC(C)CCC[C@@H](C)[C@H]1CC[C@@]2(C)C3=C(CC[C@]12C)[C@@]1(C)CC[C@H](O)C(C)(C)[C@@H]1CC3", "inhibition [%]": -46}
{"data": "Block 4", "host": "mouse", "sample": "microsomes or S9", "concentration": "2 µM", "time": "0.5 h"}
{"SMILES": "CCOC(=O)C(C)n1nc(-n2cccn2)ccc1=O (stereo not shown)", "remaining compound [%]": 0}
{"SMILES": "Cc1ccc(C(=O)C2=CN(c3cc(Cl)cc(Cl)c3)c3cc(F)ccc3S2(=O)=O)c(C)c1", "remaining compound [%]": 4.69}
{"SMILES": "Cc1nc(N(C)CC(O)CN2CCN(C)CC2)nc(C)c1CC(C)C (stereo not shown)", "remaining compound [%]": 35.4}
{"SMILES": "COc1ccc(/C=C/c2nc(S(=O)(=O)c3ccccc3)c(N(C)C)o2)cc1", "remaining compound [%]": 13}
{"SMILES": "CCC(C)c1ccc(-c2c(C)sc(N)c2C#N)cc1 (stereo not shown)", "remaining compound [%]": 7.79}
{"SMILES": "O=S(=O)(/N=C(\\NC1CCCCC1)c1ccccc1)c1ccccc1", "remaining compound [%]": 6.76}
{"SMILES": "CN(C)CCCNC(=O)c1c(OCC2CC2)cc(=O)n2c1CCCCC2", "remaining compound [%]": "> 99"}
{"SMILES": "CCC(=O)N(CCC1(c2ccccc2)CCOC(C)(C)C1)CC1CCOC(C)(C)C1 (stereo not shown)", "remaining compound [%]": 0.724}
{"SMILES": "COC(=O)c1cccnc1C1=NC(C)(C(C)C)C(=O)N1 (stereo not shown)", "remaining compound [%]": 59.2}
{"SMILES": "CCOc1ccc(S(=O)(=O)N2CCC(Oc3nccnc3C#N)C2)cc1C (stereo not shown)", "remaining compound [%]": 0.0783}
{"SMILES": "CCN(CC)S(=O)(=O)c1ccc(NC(=O)C(C)N(c2ccc(C)c(C)c2)S(C)(=O)=O)cc1 (stereo not shown)", "remaining compound [%]": 88.3}
{"SMILES": "CN(C)c1ccc(C(O)CF)c(S(N)(=O)=O)n1 (stereo not shown)", "remaining compound [%]": 89.1}
{"SMILES": "CC(=O)Nc1ccc(C(=O)N(Cc2cccnc2)C2(C(=O)NCc3ccccc3)CCN(C(C)=O)CC2)cc1", "remaining compound [%]": 37.9}
{"note": "For quick reference, copied from above (block 1):"}
{"SMILES": "Cc1onc(-c2ccccc2Cl)c1C(=O)N[C@@H]1C(=O)N2[C@@H]1SC(C)(C)[C@@H]2C(=O)O", "nuclear SOX9 intensity": "91.2 % of DMSO"}
{"SMILES": "Clc1ccc(CO/N=C(\\Cn2ccnc2)c2ccc(Cl)cc2Cl)c(Cl)c1", "nuclear SOX9 intensity": "91.6 % of DMSO"}
{"SMILES": "COc1ccc(-n2[nH]c3c4c(ncc3c2=O)CCCCC4)cc1", "nuclear SOX9 intensity": "93.4 % of DMSO"}
{"SMILES": "CN[C@@H]1[C@@H](O)[C@@H](O[C@@H]2[C@@H](O)[C@H](O[C@H]3OC(CN)=CC[C@H]3N)[C@@H](N)C[C@H]2N)OC[C@]1(C)O", "nuclear SOX9 intensity": "104 % of DMSO"}
